# Measured values of several laboratories.
# Protocols differ between the studies behind these lines.
# Organism: Escherichia coli
Structure (SMILES),test,system,setting,how to read,MIC
COc1ccc2ccc3c(c2c1)C=[N+]1C2CCCCC2[N+]2=Cc4cc(C(C)(C)C)cc(C(C)(C)C)c4[O][Au-]21[O]3.F[P-](F)(F)(F)(F)F (centres unmarked),"bacterial growth, broth microdilution",carbapenem-resistant,24 h,,> 20 µM
Cc1cc(=O)nc(NC(=O)NCCCCCCNC(=O)NCCCCCCNC(=O)OCCOCCOCCOCCOCCOCCOCC(=O)N[C@@H](CCCCN)C(=O)N[C@@H](CCCCN)C(=O)N[C@@H](Cc2ccccc2)C(=O)N2CCC[C@H]2C(=O)N[C@@H](Cc2c[nH]c3ccccc23)C(=O)N[C@@H](Cc2c[nH]c3ccccc23)C(=O)N[C@@H](Cc2c[nH]c3ccccc23)C(=O)N2CCC[C@H]2C(=O)N[C@@H](Cc2ccccc2)C(=O)N[C@@H](CCCCN)C(=O)N[C@@H](CCCCN)C(N)=O)[nH]1,,"ATCC 8937, RPMI medium","24 h, 37 °C",,30 µM
Oc1c(Cl)cc(Cl)c2cccnc12,"microbial growth, agar dilution",ATCC25922,,,37.4 µM
C=CCO[C@H]1[C@H](O)[C@@H](N)[C@@H](O[C@H]2[C@H](O[C@@H]3O[C@H](CO)[C@@H](O[C@H]4O[C@@H](CN)[C@@H](O)[C@H](O)[C@H]4N)[C@H]3O)[C@@H](O)[C@H](N)C[C@@H]2N)O[C@@H]1CO,broth microdilution,clinical isolate AG 055,,,64 µg/mL
COc1ccc2ccc3c(c2c1)C=[N+]1C2CCCCC2[N+]2=Cc4c(OC)cccc4[O][Au-]21[O]3.F[P-](F)(F)(F)(F)F (centres unmarked),"bacterial growth, broth microdilution",carbapenem-resistant,24 h,,> 20 µM
CO[C@@H](C(N)=O)[C@H](NC(=O)c1ccc(NC(=O)c2ccc([N+](=O)[O-])cc2)cc1)C(=O)Nc1ccc(C(=O)Nc2ccc(C(=O)Nc3ccc(C(=O)O)cc3)c(O)c2OC(C)C)cc1,microbial growth,DSM1116,,,0.125 µg/mL
COc1ccc2ccc3c(c2c1)C=[N+]1C2CCCCC2[N+]2=Cc4cc(C)ccc4[O][Au-]21[O]3.F[P-](F)(F)(F)(F)F (centres unmarked),"bacterial growth, broth microdilution",carbapenem-resistant,24 h,,> 20 µM
CCCCCCCCCc1nc2cc(Cl)ccc2c(=O)n1CCN,,MG1655,,,inactive
CN[C@@H]1[C@H](O)[C@H](NC)[C@H]2O[C@]3(O)[C@H](O[C@@H]2[C@H]1O)O[C@H](C)C[C@@]3(O)CNCCc1ccccc1,microbial growth,K12,,,12.5 µg/mL
CCCCc1ccc(N2C(=O)/C(=N\NC(=N)N)c3cc([N+](=O)[O-])ccc32)cc1,"microbial growth, broth dilution",,18 h,,> 192 µg/mL
NCC1OC(OC2C(N)CC(N)C(OC3OC(CO)C(O)C(N)C3O)C2OCCCCn2cc(CNc3nc(NCc4cn(CCCCOC5C(OC6OC(CN)C(O)CC6N)C(N)CC(N)C5OC5OC(CO)C(O)C(N)C5O)nn4)nc(NCc4cn(CCCCOC5C(OC6OC(CN)C(O)CC6N)C(N)CC(N)C5OC5OC(CO)C(O)C(N)C5O)nn4)n3)nn2)C(N)CC1O (centres unmarked),"microbial growth, broth dilution",ATCC25922,,,> 128 µg/mL
CC[C@H](C)[C@H](N)C1=N[C@H](C(=O)N[C@@H](CC(C)C)C(=O)N[C@H](CCC(=O)O)C(=O)N[C@H](C(=O)N[C@H]2CCCCNC(=O)[C@H](CC(N)=O)NC(=O)[C@@H](CC(=O)O)NC(=O)[C@H](Cc3c[nH]cn3)NC(=O)[C@@H](Cc3ccccc3)NC(=O)[C@H]([C@@H](C)CC)NC(=O)[C@@H](CCCN)NC2=O)[C@@H](C)CC)CS1,broth microdilution,"ATCC 25922, LB medium","18 h, 37 °C, added: ZnSO4 0.3 mM",,> 64 µg/mL
Cc1cc2[nH]c(C(=O)Nc3ccccc3C)c(CN3CCOCC3)c2s1,,"ATCC 25922, LB broth",20 h,,> 200 µM
N=C(N)NCCC[C@H](NC(=O)[C@H](Cc1c[nH]c2ccccc12)NC(=O)[C@H](CCC(N)=O)NC(=O)[C@H](Cc1c[nH]c2ccccc12)NC(=O)[C@H](CCCNC(=N)N)NC(=O)[C@@H](N)CCCNC(=N)N)C(=O)NCCCC[C@H](NC(=O)[C@H](CCCNC(=N)N)NC(=O)[C@H](Cc1c[nH]c2ccccc12)NC(=O)[C@H](CCC(N)=O)NC(=O)[C@H](Cc1c[nH]c2ccccc12)NC(=O)[C@H](CCCNC(=N)N)NC(=O)[C@@H](N)CCCNC(=N)N)C(=O)NCCCCCC(N)=O,broth microdilution,ATCC 43827,"24 h, 37 °C",,11 µM
O=C1OCC(NCCc2ccc(Cl)cc2)N1/N=C/c1ccc([N+](=O)[O-])o1 (centres unmarked),"microbial growth, broth dilution",ATCC25922,18 h,,3.12 µg/mL
CCn1[c]([Au-][Cl])[n+](CC)c2ccc(C(=O)OC)cc21,broth dilution,DSM 1116,"20 h, 37 °C",,> 30 µM
CO[C@H]1[C@H](O)[C@@H](N)[C@@H](O[C@H]2[C@H](O[C@@H]3O[C@H](CO)[C@@H](O[C@H]4O[C@@H](CN)[C@@H](O)[C@H](O)[C@H]4N)[C@H]3O)[C@@H](O)[C@H](N)C[C@@H]2N)O[C@@H]1CO,broth microdilution,clinical isolate AG 002,,,≥ 128 µg/mL
COc1ccc2c(oc3c4ccc(O)cc4oc(=O)c23)c1CC=C(C)C,,TISTR 780,,,128 µg/mL
C/C(=N\Nc1nc(-c2ccccc2)cs1)c1ccc2c(c1)sc1nc(=O)c(C#N)cn12,"microbial growth, broth dilution",,,,< 36 µg/mL
CCN(CC)CCCN1/C(=C/c2cc(C)[n+](C)c3ccccc23)Sc2ccccc21,"microbial growth, broth dilution","ATCC 8739, ATCC8739",,,4 µg/mL
CC(C)C[C@@H](NC(=O)[C@@H](CC(C)C)NC(=O)[C@@H](CCCCN)NC(=O)[C@@H](CCCCNC(=O)[C@@H](CC(C)C)NC(=O)[C@@H](CC(C)C)NC(=O)[C@@H](CCCCNC(=O)[C@@H](CC(C)C)NC(=O)[C@@H](CCCCN)NC(=O)[C@@H](CCCCNC(=O)[C@@H](CC(C)C)NC(=O)[C@H](N)CCCCN)NC(=O)[C@@H](CC(C)C)NC(=O)[C@H](N)CCCCN)NC(=O)[C@@H](CC(C)C)NC(=O)[C@@H](CCCCN)NC(=O)[C@@H](CCCCNC(=O)[C@@H](CC(C)C)NC(=O)[C@H](N)CCCCN)NC(=O)[C@@H](CC(C)C)NC(=O)[C@H](N)CCCCN)NC(=O)[C@@H](CC(C)C)NC(=O)[C@@H](CC(C)C)NC(=O)[C@@H](CCCCNC(=O)[C@@H](CC(C)C)NC(=O)[C@@H](CCCCN)NC(=O)[C@@H](CCCCNC(=O)[C@@H](CC(C)C)NC(=O)[C@H](N)CCCCN)NC(=O)[C@@H](CC(C)C)NC(=O)[C@H](N)CCCCN)NC(=O)[C@@H](CC(C)C)NC(=O)[C@@H](CCCCN)NC(=O)[C@@H](CCCCNC(=O)[C@@H](CC(C)C)NC(=O)[C@H](N)CCCCN)NC(=O)[C@@H](CC(C)C)NC(=O)[C@H](N)CCCCN)C(N)=O,broth microdilution,W3110,37 °C,,8 µg/mL
O=C(NCCNCCO)c1cn(Cc2cccc(Br)c2)c2cc(Cl)c(OCc3ccc(C(F)(F)F)cc3)cc2c1=O,,ATCC 25922,,≥80% growth inhibition,< 0.25 µg/mL
CCn1cc(/C=C/c2ccc3ccccc3[n+]2CC)c2ccccc21,"microbial growth, broth dilution",780,,,4 µg/mL
COc1ccc2ccc3c(c2c1)C=[N+]1C2CCCCC2[N+]2=Cc4ccccc4[O][Au-]21[O]3.F[P-](F)(F)(F)(F)F (centres unmarked),"bacterial growth, broth microdilution",carbapenem-resistant clinical isolate,24 h,,> 20 µM
CC(=NNC(=N)N)c1nnn(-c2ccc(C#CC3(O)CCCCC3)cc2)c1C,"microbial growth, broth dilution",BW25113,,,> 64 µg/mL
CCCCO[C@H]1[C@H](O)[C@@H](N)[C@@H](O[C@H]2[C@H](O[C@@H]3O[C@H](CO)[C@@H](O[C@H]4O[C@@H](CN)[C@@H](O)[C@H](O)[C@H]4N)[C@H]3O)[C@@H](O)[C@H](N)C[C@@H]2N)O[C@@H]1CO,broth microdilution,clinical isolate AG 002,,,32 to 64 µg/mL
NC[C@H]1OB(O)c2c(OCCO)cccc21,,ATCC 25922,"M9 medium, added: norvaline 12.5 µM",,3.1 µM
Cc1ccc(NC(=O)C2C(=O)C(c3ccccc3)c3ccc4c(c32)C(=O)c2ccccc2C4=O)cc1 (centres unmarked),microbial growth,,,,> 100 µg/mL
CCCCN(CCCC)CC(O)COc1c2ccoc2c(OC)c2oc(CC)cc(=O)c12 (centres unmarked),"microbial growth, broth dilution",ATCC25,19 h,,> 256 µg/mL
CC(CCCOC(=O)CCC[N+](C)(C)C)C1CCC2C3CCC4CC(OC(=O)CCC[N+](C)(C)C)CCC4(C)C3CC(OC(=O)CCC[N+](C)(C)C)C12C (centres unmarked),"microbial growth, broth dilution",ATCC25922,16 h,,15.6 µg/mL
c1ccc(CN2CCOCCOCCN(CCCCCCCCCCCCCCN3CCOCCOCCN(CCCCCCCCCCCCCCN4CCOCCOCCN(Cc5ccccc5)CCOCCOCC4)CCOCCOCC3)CCOCCOCC2)cc1,microbial growth,,,,3 µM
COc1ccc2ccc3c(c2c1)C=[N+]1C2CCCCC2[N+]2=Cc4ccc(OCCN5CCCCC5)cc4[O][Au-]21[O]3.F[P-](F)(F)(F)(F)F (centres unmarked),"bacterial growth, broth microdilution",carbapenem-resistant clinical isolate,24 h,,20 µM
C[Si](C)(C)Cc1ccc(C2COC(=O)N2/N=C/c2ccc([N+](=O)[O-])o2)cc1 (centres unmarked),"microbial growth, broth dilution",ATCC25922,18 h,,> 50 µg/mL
CC1OCC2OC(OC3C(N)CC(N)C(O)C3OC3OC(CO)C(OC4OC(CN)C(O)C(O)C4N)C3O)C(N)C(O)C2O1 (centres unmarked),broth microdilution,clinical isolate AG 003,,,64 to 128 µg/mL
CC(=O)N1CCc2cc(S(=O)(=O)N3CCN(c4cc(C(F)(F)F)ccn4)CC3)ccc21,"microbial growth, broth dilution",25922,22 h,,> 64 µg/mL
CC(C)=CCc1cc([C@@H]2CC(=O)c3ccc(O)c(CC=C(C)C)c3O2)c(O)c(CC=C(C)C)c1O,,TISTR 780,,,128 µg/mL
C/C(=N\Nc1nc(-c2ccc(Cl)cc2)cs1)c1ccc2c(c1)sc1nc(=O)c(C#N)cn12,"microbial growth, broth dilution",,,,< 29 µg/mL
CCCCCCCCCCN1C(=O)/C(=N\NC(N)=S)c2cc(C)ccc21,broth microdilution,25922,"18 h, 37 °C",,> 192 µg/mL

# A few entries again:
Structure (SMILES),test,system,setting,how to read,MIC
CN[C@@H]1[C@H](O)[C@H](NC)[C@H]2O[C@]3(O)[C@H](O[C@@H]2[C@H]1O)O[C@H](C)C[C@@]3(O)CNCCc1ccccc1,microbial growth,K12,,,12.5 µg/mL
CCCCc1ccc(N2C(=O)/C(=N\NC(=N)N)c3cc([N+](=O)[O-])ccc32)cc1,"microbial growth, broth dilution",,18 h,,> 192 µg/mL
NCC1OC(OC2C(N)CC(N)C(OC3OC(CO)C(O)C(N)C3O)C2OCCCCn2cc(CNc3nc(NCc4cn(CCCCOC5C(OC6OC(CN)C(O)CC6N)C(N)CC(N)C5OC5OC(CO)C(O)C(N)C5O)nn4)nc(NCc4cn(CCCCOC5C(OC6OC(CN)C(O)CC6N)C(N)CC(N)C5OC5OC(CO)C(O)C(N)C5O)nn4)n3)nn2)C(N)CC1O (centres unmarked),"microbial growth, broth dilution",ATCC25922,,,> 128 µg/mL
